{"data": "Published values from different studies", "target": "Glycogen synthase kinase-3 beta (GSK3B, Homo sapiens, UniProt P49841)", "note": "Each line is one published result; not all experiments were run side by side.", "UniProt P49841, sequence (whole entry, looked up)": "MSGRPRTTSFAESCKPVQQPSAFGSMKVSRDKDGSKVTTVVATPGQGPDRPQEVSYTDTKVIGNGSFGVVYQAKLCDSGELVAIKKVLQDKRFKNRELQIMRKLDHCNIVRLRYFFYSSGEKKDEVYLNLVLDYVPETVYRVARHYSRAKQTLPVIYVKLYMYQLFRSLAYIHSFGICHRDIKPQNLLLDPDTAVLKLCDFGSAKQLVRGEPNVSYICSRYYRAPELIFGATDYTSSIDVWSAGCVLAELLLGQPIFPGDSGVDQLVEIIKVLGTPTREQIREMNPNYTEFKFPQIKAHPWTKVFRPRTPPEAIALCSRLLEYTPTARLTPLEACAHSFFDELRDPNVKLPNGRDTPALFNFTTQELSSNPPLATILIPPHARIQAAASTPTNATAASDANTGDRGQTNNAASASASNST"}
{"SMILES": "CS(C)(=O)=Nc1ccc(-c2ccc(-c3nc4cc(O[C@@H]5CO[C@H]6[C@@H]5OC[C@H]6O)[nH]c4cc3F)cc2)cc1", "assay": "enzyme activity, inhibitor", "conditions": "10 µM", "quantity": "inhibition", "result": "-19%"}
{"SMILES": "CCOC(=O)[C@@H]1Cc2c(cc([N+](=O)[O-])cc2[N+](=O)[O-])[C@H](O)[C@]12C(=O)Nc1ccc(Br)cc12", "assay": "binding, competition with immobilised ligand", "conditions": "0.1 µM", "quantity": "remaining binding", "result": "44%"}
{"SMILES": "C[C@H](NCc1ccc(-c2ccc(C(F)(F)F)cc2)cc1)C(N)=O", "assay": "cell-free assay, competition with immobilised ligand", "conditions": "1 µM", "quantity": "inhibition", "result": "8%"}
{"SMILES": "CN(/N=C/c1ccccc1C(=O)O)c1nc(-c2ccccc2Cl)cs1", "assay": "enzyme activity, inhibitor", "conditions": "1 µM", "quantity": "inhibition", "result": "-8.51%"}
{"SMILES": "CC(C)[C@H]1NC(=O)C[C@H]2/C=C/CCSSC[C@@H](NC1=O)C(=O)N[C@H](Cc1cccc3ccccc13)C(=O)NCC(=O)O2", "assay": "enzyme activity, inhibitor", "conditions": "10 µM", "quantity": "inhibition", "result": "-3.6%"}
{"SMILES": "CCOC(=O)[C@](CC)(CCCSCCOCCOCCNC(=O)c1ccc(-c2c3ccc(=N)c(S(=O)(=O)O)c-3oc3c(S(=O)(=O)O)c(N)ccc23)c(C(=O)O)c1)NC(=O)c1ccc(C2CC2)c(Cc2ccc(F)cc2)n1", "assay": "enzyme activity, inhibitor", "conditions": "10 µM", "quantity": "inhibition", "result": "-10%"}
{"SMILES": "C=CC(=O)Nc1cc(-c2nn(C3CCC(N4CCN(C(C)=O)CC4)CC3)c3ncnc(N)c23)ccc1Oc1ccccc1 (centres unmarked)", "assay": "inhibitor, KiNativ profiling", "system": "biochemical", "conditions": "2 µM", "quantity": "inhibition", "result": "-9.3%"}
{"SMILES": "Nc1ccc(/C=C/C(=O)N2CCc3c(oc4c(-c5ccc(F)cc5)cc(-c5ccc(C(=O)N6CCC(F)(F)CC6)cn5)cc34)C2)cn1", "assay": "binding, competition with immobilised ligand", "conditions": "1 µM", "quantity": "remaining binding", "result": "100%"}
{"SMILES": "N[C@H](C(=O)N1CCCC1)C1CCN(c2nccc3c(-c4ncc(Cl)cc4Cl)cccc23)CC1", "assay": "kinase activity, inhibitor", "conditions": "10 µM, added: ATP 1 mM", "quantity": "inhibition", "result": "-0.3%"}
{"SMILES": "O=C1NC(=O)c2c1c1cc(F)c[n+]3c1c1c2c2cc(O)ccc2[n]1[Ru-4]312([N]=C=S)[S+]3CC[S+]1CC[S+]2CC3 (centres unmarked)", "assay": "enzyme activity", "conditions": "100 nM, human enzyme, added: 10 µM ATP", "how to read": "baseline: untreated", "quantity": "remaining activity", "result": "56%"}
{"SMILES": "CN(C)[C@H]1C[C@@]23CC[C@@]4(O2)C(=CC[C@]2(C)[C@@H](c5ccc6ccncc6c5)CC[C@H]24)C=C3[C@@H](O)[C@@H]1O", "assay": "ATP probe labelling, inhibitor, KiNativ profiling", "conditions": "1 µM", "quantity": "inhibition", "result": "5.2%"}
